Measurements pooled from the literature.
Each line is one published result; not all experiments were run side by side. Numbers after ± are the reported error.

| SMILES | cell line | assay | setting | how to read | quantity | value |
| --- | --- | --- | --- | --- | --- | --- |
| O=C(Nc1cccc(Cl)c1)C1CCCN(Cc2cccc(-c3ccc(F)cc3F)c2)C1 (stereo not drawn) | Vero-E6 | CellTiter-Glo ATP | concentration not given, 72 h, first round 5-point | reference: DMSO 0%, hyamine -100%, more negative, more toxic | cytotoxicity efficacy | 0% |
| CC[C@H](C)[C@H](NC(=O)[C@H](CC(C)C)NC(=O)[C@@H]1CCCN1C(=O)[C@H](CCC(N)=O)NC(=O)[C@H](CCCCN)NC(=O)[C@H](Cc1c[nH]cn1)NC(=O)[C@H](CS)NC(=O)[C@H](CCCNC(=N)N)NC(=O)[C@H](CCCCN)NC(=O)[C@H](CO)NC(=O)[C@H](CC(C)C)NC(=O)[C@H](CO)NC(=O)[C@H](Cc1ccccc1)NC(=O)[C@H](CC(C)C)NC(=O)[C@H](CCCCN)NC(=O)[C@H](Cc1c[nH]cn1)NC(=O)[C@@H](NC(=O)[C@@H](NC(=O)[C@H](CCCCN)NC(=O)[C@H](CCC(N)=O)NC(=O)[C@H](C)NC(=O)[C@H](CCCCN)NC(=O)[C@H](CC(C)C)NC(=O)[C@H](Cc1ccccc1)NC(=O)[C@H](CC(C)C)NC(=O)[C@H](CCC(N)=O)NC(=O)[C@@H](N)CCCCN)[C@@H](C)CC)C(C)C)C(=O)N[C@@H](CO)C(=O)N[C@@H](CC(C)C)C(=O)N1CCC[C@H]1C(=O)N[C@@H](CCCNC(=N)N)C(=O)N[C@@H](CCC(N)=O)C(=O)N[C@@H](CCCNC(=N)N)C(=O)O | THP-1, PMA-differentiated | cell viability, MTT |  |  | CC50 | 28.5 µM |
| COc1ccc(-c2nn3c(Cn4cnc5ccccc54)nnc3s2)cc1 | HEp-2 | cytotoxicity |  |  | CC50 | 35.5 µM |
| CC[C@H](C)[C@H](NC(=O)[C@H](CCCCN)NC(=O)[C@H](CCC(N)=O)NC(=O)[C@H](CCSC)NC(=O)[C@H](CCC(N)=O)NC(=O)[C@H](CC(C)C)NC(=O)[C@H](CCC(N)=O)NC(=O)[C@H](CO)NC(=O)[C@H](CCCCN)NC(=O)CNC(=O)[C@H](C)NC(=O)[C@@H](N)CC(C)C)C(=O)N[C@@H](Cc1ccccc1)C(=O)N[C@@H](CCCCN)C(=O)N[C@@H](CCCCN)C(=O)N[C@@H](CC(C)C)C(=O)N1CCC[C@H]1C(=O)NCC(=O)N[C@@H](Cc1ccccc1)C(=O)N[C@@H](CCCCN)C(=O)N[C@@H](CCCCN)C(=O)N[C@H](C(=O)N[C@@H](Cc1c[nH]cn1)C(=O)N[C@H](C(=O)N[C@@H](CC(C)C)C(=O)NCC(=O)N[C@@H](Cc1ccccc1)C(=O)N[C@@H](CCCNC(=N)N)C(=O)N1CCC[C@H]1C(=O)N[C@@H](CCCCN)C(=O)N[C@@H](CCCCN)C(=O)O)C(C)C)[C@@H](C)CC | THP-1, PMA-differentiated | cell viability, MTT |  |  | CC50 | 133 µM |
| CCC(CC)COC(=O)[C@H](C)N[P@](=O)(OC[C@H]1O[C@@](C#N)(c2ccc3c(N)ncnn23)[C@H](O)[C@@H]1O)Oc1ccccc1 | CEM |  |  |  | CC50 | 9 ± 4.7 µM |
| CC[C@H](C)[C@H](NC(=O)[C@H](CCCNC(=N)N)NC(=O)[C@@H](NC(=O)[C@H](CC(C)C)NC(=O)[C@H](Cc1c[nH]c2ccccc12)NC(=O)[C@H](Cc1ccc(O)cc1)NC(=O)[C@@H](NC(=O)[C@H](CO)NC(=O)[C@@H](NC(=O)[C@H](CCCNC(=N)N)NC(=O)[C@H](CCC(N)=O)NC(=O)[C@H](CCCNC(=N)N)NC(=O)[C@@H]1CCCN1C(=O)[C@H](CC(C)C)NC(=O)[C@H](CO)NC(=O)[C@@H](NC(=O)[C@H](CC(C)C)NC(=O)[C@@H]1CCCN1C(=O)[C@H](CCC(N)=O)NC(=O)[C@H](CCCCN)NC(=O)[C@H](Cc1c[nH]cn1)NC(=O)[C@H](CS)NC(=O)[C@H](CCCNC(=N)N)NC(=O)[C@H](CCCCN)NC(=O)[C@H](CO)NC(=O)[C@H](CC(C)C)NC(=O)[C@H](CO)NC(=O)[C@H](Cc1ccccc1)NC(=O)[C@H](CC(C)C)NC(=O)[C@H](CCCCN)NC(=O)[C@H](Cc1c[nH]cn1)NC(=O)[C@@H](NC(=O)[C@@H](NC(=O)[C@H](CCCCN)NC(=O)[C@H](CCC(N)=O)NC(=O)[C@H](C)NC(=O)[C@H](CCCCN)NC(=O)[C@H](CC(C)C)NC(=O)[C@H](Cc1ccccc1)NC(=O)[C@@H](N)CC(C)C)[C@@H](C)CC)C(C)C)[C@@H](C)CC)[C@@H](C)O)[C@@H](C)O)[C@@H](C)O)C(=O)O | THP-1, PMA-differentiated | cell viability, MTT |  |  | CC50 | 20.1 µM |
| Brc1ccc(-c2nn3c(Cn4cnc5ccccc54)nnc3s2)cc1 | HEp-2 | cytotoxicity |  |  | CC50 | > 100 µM |
| Cc1cc(COc2ccc([C@]3(N)CCN([C@H](CC(C)C)C(=O)NO)C3=O)cc2)c2ccccc2n1 | 293T or HeLa | CellTiter-Glo | 72 h |  | CC50 | > 10 µM |
| O=C(CC1NCCCC1O)Cn1cnc2cc(Br)c(Cl)cc2c1=O (stereo not drawn) | LMH chicken hepatoma cells |  |  |  | CC50 | 0.0399 µM |
| CC(C)(C)c1ccc(-c2nn3c(Cn4cnc5ccccc54)nnc3s2)cc1 | HEp-2 | cytotoxicity |  |  | CC50 | 26.8 µM |
| CC[C@H](C)[C@H](NC(=O)[C@H](CCC(N)=O)NC(=O)[C@H](CCCCN)NC(=O)[C@H](CCSC)NC(=O)[C@H](CO)NC(=O)[C@H](CCC(=O)O)NC(=O)[C@H](CCC(N)=O)NC(=O)[C@@H]1CCCN1C(=O)[C@H](CS)NC(=O)[C@@H](NC(=O)[C@H](CCCCN)NC(=O)[C@@H](NC(=O)CNC(=O)[C@@H](NC(=O)[C@@H]1CCCN1C(=O)[C@H](Cc1ccccc1)NC(=O)[C@H](Cc1ccccc1)NC(=O)[C@H](C)NC(=O)[C@H](CO)NC(=O)[C@H](CCCNC(=N)N)NC(=O)[C@H](CCCCN)NC(=O)[C@@H](NC(=O)[C@H](CCCNC(=N)N)NC(=O)[C@H](Cc1c[nH]cn1)NC(=O)[C@H](CCCCN)NC(=O)[C@H](C)NC(=O)[C@H](CC(C)C)NC(=O)[C@H](CC(=O)O)NC(=O)[C@H](Cc1ccccc1)NC(=O)[C@@H](NC(=O)[C@H](CCCNC(=N)N)NC(=O)[C@H](CCCNC(=N)N)NC(=O)[C@H](CCSC)NC(=O)[C@@H](NC(=O)[C@H](CO)NC(=O)[C@H](CCSC)NC(=O)[C@H](CCCCN)NC(=O)[C@H](Cc1ccc(O)cc1)NC(=O)[C@H](CCSC)NC(=O)[C@@H](N)CCCCN)[C@@H](C)O)[C@@H](C)CC)[C@@H](C)O)[C@@H](C)O)C(C)C)C(C)C)C(=O)N[C@@H](CC(C)C)C(=O)O | THP-1, PMA-differentiated | cell viability, MTT |  |  | CC50 | 41.7 µM |
| CN(C)c1ccc(N(Cc2cc(Cl)cs2)C(=O)Cc2cncc3cccc(O)c23)cc1 | Calu-3 |  | 48 h |  | CC50 | 18.2 µM |
| CC[C@H]1CN2CCc3cc(OC)c(OC)cc3[C@@H]2C[C@@H]1C[C@H]1NCCc2cc(OC)c(OC)cc21 | THP-1 PMA-differentiated macrophages | CellTiter-Glo | 72 h, host cell cytotoxicity |  | CC50 | 0.23 µM |
| O=C1Nc2ccc3ncsc3c2/C1=C/c1c[nH]cn1 | THP-1 |  | 24 h |  | CC50 | 1.13 µM |
| CC[C@H](C)[C@H](NC(=O)[C@H](Cc1ccccc1)NC(=O)[C@H](Cc1ccccc1)NC(=O)[C@@H](NC(=O)[C@@H](NC(=O)[C@H](CCCCN)NC(=O)[C@H](CCC(N)=O)NC(=O)[C@H](Cc1c[nH]cn1)NC(=O)[C@H](CO)NC(=O)[C@H](CO)NC(=O)[C@@H](NC(=O)[C@@H]1CCCN1C(=O)[C@H](C)NC(=O)[C@H](Cc1ccccc1)NC(=O)[C@H](CCCNC(=N)N)NC(=O)[C@H](CC(C)C)NC(=O)[C@H](Cc1ccccc1)NC(=O)[C@H](CCCCN)NC(=O)[C@H](C)NC(=O)CNC(=O)[C@H](CCCCN)NC(=O)[C@H](CCCNC(=N)N)NC(=O)[C@H](CCCCN)NC(=O)[C@@H](NC(=O)[C@H](Cc1ccccc1)NC(=O)[C@@H](NC(=O)[C@H](CC(=O)O)NC(=O)[C@@H](NC(=O)[C@@H](NC(=O)[C@@H](N)CCCCN)[C@@H](C)CC)[C@@H](C)O)C(C)C)C(C)C)C(C)C)C(C)C)[C@@H](C)O)C(=O)N[C@@H](Cc1c[nH]cn1)C(=O)O | THP-1, PMA-differentiated | cell viability, MTT |  |  | CC50 | 98.1 µM |
| CNC(=O)[C@@]12C[C@@H]1[C@@H](n1cnc3c(NCc4cccc(Cl)c4)nc(C#Cc4ccc(F)c(F)c4)nc31)[C@H](O)[C@@H]2O | monkey cell line | visual |  |  | CC50 | 32 µM |
| CC1CCCCN1CCCNC(=O)c1cc(Sc2cccc(Cl)c2)nc2ccccc12 (stereo not drawn) | Vero-E6 | CellTiter-Glo ATP | 72 h, second round 5-point | reference: DMSO 0%, hyamine -100%, more negative, more toxic | maximum response | -11.8% |
| Cc1nc2ccccc2n1Cc1nnc2sc(-c3cncc(Br)c3)nn12 | HEp-2 | cytotoxicity |  |  | CC50 | 40 µM |
| O=C(Nc1ccc([N+](=O)[O-])cc1Cl)c1cc(Cl)ccc1O | Vero E6 cells | cell viability | 72 h |  | CC50 | 3.2 µM |
| Clc1ccc(-c2nn3c(Cn4cnc5ccccc54)nnc3s2)c(Cl)n1 | HEp-2 | cytotoxicity |  |  | CC50 | 19.2 µM |
| CC(C)(C)c1ccc(N(Cc2cc(Cl)cs2)C(=O)Cc2cncc3ccccc23)cc1 | Calu-3 |  | 48 h |  | CC50 | 33.4 µM |

A few entries again:
| SMILES | cell line | assay | setting | how to read | quantity | value |
| --- | --- | --- | --- | --- | --- | --- |
| CC1CCCCN1CCCNC(=O)c1cc(Sc2cccc(Cl)c2)nc2ccccc12 (stereo not drawn) | Vero-E6 | CellTiter-Glo ATP | 72 h, second round 5-point | reference: DMSO 0%, hyamine -100%, more negative, more toxic | maximum response | -11.8% |
| Cc1nc2ccccc2n1Cc1nnc2sc(-c3cncc(Br)c3)nn12 | HEp-2 | cytotoxicity |  |  | CC50 | 40 µM |
